Results of several laboratories.
Lines come from different studies, so protocols differ.
Sequence of UniProt Q9BVS4 (whole entry, looked up): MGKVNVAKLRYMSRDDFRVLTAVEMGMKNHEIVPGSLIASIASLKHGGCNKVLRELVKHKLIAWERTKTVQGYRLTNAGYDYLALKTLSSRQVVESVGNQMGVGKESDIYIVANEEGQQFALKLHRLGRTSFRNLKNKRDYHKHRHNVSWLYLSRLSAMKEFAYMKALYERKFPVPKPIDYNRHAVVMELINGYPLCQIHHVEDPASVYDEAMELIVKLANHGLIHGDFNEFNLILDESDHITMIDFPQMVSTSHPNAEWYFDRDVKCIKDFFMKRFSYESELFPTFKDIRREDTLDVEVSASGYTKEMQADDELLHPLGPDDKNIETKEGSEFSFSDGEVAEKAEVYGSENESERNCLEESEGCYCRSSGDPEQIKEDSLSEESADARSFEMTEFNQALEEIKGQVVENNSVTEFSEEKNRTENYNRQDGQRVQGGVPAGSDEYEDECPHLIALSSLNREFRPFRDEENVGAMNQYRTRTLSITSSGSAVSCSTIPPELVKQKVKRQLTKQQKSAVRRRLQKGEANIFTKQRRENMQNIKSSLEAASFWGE
Sequence of UniProt Q16513 (whole entry, looked up): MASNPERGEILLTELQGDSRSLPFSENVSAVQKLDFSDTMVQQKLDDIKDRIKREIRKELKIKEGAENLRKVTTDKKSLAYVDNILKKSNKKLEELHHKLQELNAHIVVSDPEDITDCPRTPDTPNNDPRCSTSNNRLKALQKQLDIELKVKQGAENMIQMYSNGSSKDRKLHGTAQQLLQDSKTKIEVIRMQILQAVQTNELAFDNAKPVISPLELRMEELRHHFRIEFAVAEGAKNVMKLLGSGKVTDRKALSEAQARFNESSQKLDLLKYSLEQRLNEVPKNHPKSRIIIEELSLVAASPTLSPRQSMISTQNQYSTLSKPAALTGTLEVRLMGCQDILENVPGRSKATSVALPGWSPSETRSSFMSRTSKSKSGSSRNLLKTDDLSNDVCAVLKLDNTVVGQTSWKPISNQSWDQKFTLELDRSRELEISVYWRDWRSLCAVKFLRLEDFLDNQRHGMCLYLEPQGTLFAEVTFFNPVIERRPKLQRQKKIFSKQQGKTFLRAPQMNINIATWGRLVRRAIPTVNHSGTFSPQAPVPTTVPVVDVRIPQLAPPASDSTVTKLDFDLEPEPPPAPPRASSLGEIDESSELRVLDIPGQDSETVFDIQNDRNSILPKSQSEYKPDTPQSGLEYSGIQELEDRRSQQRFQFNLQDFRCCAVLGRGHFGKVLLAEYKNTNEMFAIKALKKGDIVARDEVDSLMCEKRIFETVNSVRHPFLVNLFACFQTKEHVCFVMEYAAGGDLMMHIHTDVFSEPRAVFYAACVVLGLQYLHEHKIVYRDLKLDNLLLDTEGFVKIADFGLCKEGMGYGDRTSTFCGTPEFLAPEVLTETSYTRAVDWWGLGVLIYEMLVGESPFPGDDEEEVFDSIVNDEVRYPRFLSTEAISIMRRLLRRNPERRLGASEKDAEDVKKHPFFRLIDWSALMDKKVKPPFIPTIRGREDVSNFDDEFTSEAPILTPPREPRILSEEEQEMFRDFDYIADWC
Sequence of UniProt Q13177 (whole entry, looked up): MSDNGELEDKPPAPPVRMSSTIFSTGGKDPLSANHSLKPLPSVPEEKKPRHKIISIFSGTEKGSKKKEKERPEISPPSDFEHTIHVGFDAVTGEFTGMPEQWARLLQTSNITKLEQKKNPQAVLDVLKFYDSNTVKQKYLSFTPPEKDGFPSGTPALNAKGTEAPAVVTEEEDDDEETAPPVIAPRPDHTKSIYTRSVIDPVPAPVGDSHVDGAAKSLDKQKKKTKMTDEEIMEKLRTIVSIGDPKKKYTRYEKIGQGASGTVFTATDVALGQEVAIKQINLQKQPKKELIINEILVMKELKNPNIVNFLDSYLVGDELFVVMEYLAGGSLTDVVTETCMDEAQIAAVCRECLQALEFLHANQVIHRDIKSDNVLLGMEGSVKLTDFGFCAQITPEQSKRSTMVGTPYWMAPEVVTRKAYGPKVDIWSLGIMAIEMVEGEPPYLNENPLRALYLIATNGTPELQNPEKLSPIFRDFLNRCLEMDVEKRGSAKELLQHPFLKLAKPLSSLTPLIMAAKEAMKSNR
Sequence of UniProt Q13153 (whole entry, looked up): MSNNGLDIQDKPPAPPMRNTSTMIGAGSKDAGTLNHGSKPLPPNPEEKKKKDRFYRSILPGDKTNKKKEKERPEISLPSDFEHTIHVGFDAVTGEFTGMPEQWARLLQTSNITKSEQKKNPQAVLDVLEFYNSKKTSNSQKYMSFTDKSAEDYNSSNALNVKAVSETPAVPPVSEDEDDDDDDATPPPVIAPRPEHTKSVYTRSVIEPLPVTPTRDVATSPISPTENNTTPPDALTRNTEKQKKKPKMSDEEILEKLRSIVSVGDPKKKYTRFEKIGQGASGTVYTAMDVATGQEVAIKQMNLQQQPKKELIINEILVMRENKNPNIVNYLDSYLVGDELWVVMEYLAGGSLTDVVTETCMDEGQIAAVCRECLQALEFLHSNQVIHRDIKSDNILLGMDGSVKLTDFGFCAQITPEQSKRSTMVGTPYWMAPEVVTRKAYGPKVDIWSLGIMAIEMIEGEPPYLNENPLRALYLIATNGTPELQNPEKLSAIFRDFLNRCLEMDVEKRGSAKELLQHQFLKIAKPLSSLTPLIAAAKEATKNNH
Sequence of UniProt Q8NEB9 (whole entry, looked up): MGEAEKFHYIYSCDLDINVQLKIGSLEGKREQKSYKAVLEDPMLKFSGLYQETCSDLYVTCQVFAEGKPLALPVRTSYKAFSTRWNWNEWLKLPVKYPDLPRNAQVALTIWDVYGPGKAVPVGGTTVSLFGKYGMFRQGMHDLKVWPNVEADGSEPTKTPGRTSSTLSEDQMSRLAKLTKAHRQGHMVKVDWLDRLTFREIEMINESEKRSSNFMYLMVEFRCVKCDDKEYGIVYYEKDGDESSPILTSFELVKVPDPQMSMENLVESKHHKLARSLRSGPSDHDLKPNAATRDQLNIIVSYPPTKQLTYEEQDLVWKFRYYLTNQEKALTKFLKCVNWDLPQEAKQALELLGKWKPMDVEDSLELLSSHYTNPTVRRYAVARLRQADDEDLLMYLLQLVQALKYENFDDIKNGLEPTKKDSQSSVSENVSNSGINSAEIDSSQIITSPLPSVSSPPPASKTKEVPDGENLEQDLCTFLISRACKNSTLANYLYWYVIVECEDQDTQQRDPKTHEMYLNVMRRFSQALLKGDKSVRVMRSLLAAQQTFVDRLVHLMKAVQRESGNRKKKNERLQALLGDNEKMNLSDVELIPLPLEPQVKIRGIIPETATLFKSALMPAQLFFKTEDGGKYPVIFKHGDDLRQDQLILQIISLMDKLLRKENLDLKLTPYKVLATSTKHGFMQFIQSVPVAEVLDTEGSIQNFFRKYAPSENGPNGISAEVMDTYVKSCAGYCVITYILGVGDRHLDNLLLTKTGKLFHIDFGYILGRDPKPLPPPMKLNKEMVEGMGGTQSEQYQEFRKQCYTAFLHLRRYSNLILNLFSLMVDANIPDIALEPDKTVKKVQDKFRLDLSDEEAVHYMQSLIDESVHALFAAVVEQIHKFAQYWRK
Sequence of UniProt P45983 (whole entry, looked up): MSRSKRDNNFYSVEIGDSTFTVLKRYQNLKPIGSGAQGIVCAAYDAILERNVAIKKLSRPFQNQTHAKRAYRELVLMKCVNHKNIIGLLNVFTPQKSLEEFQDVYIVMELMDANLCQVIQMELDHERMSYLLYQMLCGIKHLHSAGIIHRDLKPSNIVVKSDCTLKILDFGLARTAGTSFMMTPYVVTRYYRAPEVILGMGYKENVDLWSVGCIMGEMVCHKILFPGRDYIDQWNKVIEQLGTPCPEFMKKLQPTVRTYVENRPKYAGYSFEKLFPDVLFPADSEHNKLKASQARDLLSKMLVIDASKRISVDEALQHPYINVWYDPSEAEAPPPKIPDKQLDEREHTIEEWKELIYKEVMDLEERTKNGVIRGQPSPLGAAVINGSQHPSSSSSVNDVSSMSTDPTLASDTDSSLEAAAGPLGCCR
Sequence of UniProt Q9NR20 (whole entry, looked up): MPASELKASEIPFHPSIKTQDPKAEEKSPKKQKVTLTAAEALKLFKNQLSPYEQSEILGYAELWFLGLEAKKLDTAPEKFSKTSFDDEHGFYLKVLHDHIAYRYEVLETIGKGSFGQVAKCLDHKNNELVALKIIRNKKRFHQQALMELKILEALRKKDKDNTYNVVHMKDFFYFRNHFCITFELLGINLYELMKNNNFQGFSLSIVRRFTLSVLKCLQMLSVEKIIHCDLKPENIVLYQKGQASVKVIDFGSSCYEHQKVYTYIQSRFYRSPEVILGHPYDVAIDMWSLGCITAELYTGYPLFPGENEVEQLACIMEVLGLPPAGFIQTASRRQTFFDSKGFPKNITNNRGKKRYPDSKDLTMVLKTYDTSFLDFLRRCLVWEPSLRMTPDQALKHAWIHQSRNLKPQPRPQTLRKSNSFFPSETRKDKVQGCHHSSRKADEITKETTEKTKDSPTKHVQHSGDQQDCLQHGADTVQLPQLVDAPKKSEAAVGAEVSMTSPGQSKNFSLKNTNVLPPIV

C[C@H](NCc1ccc(-c2ccc(C(F)(F)F)cc2)cc1)C(N)=O
inhibition (RIOK2 (Homo sapiens, UniProt Q9BVS4); cell-free assay, competition with immobilised ligand; 1 µM): 3%

O=C(O)c1ccccc1/C=N/Nc1nc(-c2ccccc2Cl)cs1
inhibition (PAK1 (Homo sapiens, UniProt Q13153); enzyme activity, inhibitor; 1 µM): -3.42%

O=C(CN1CN(c2ccccc2)C2(CCN(C(=O)c3cnc4[nH]ncc4c3)CC2)C1=O)NCC(F)(F)F
inhibition (MAPK8 (Homo sapiens, UniProt P45983); inhibitor; concentration not given): < 50%

COc1ccc(F)cc1S(=O)(=O)Nc1cnc2c(c1)C(=O)NCCO2
inhibition (L-type calcium channel Dihydropyridine site; radioligand binding; 10 µM): -12%

CN(C)[C@H]1C[C@@]23CC[C@@]4(O2)C(=CC[C@]2(C)[C@@H](c5ccc6ccncc6c5)CC[C@H]24)C=C3[C@@H](O)[C@@H]1O
inhibition (PIK3C3 (Homo sapiens, UniProt Q8NEB9); ATP probe labelling, inhibitor, KiNativ profiling; 1 µM): -4.6%

CN(/N=C/c1ccccc1C(=O)O)c1nc(-c2ccccc2Cl)cs1
inhibition (DYRK4 (Homo sapiens, UniProt Q9NR20); enzyme activity, inhibitor; 1 µM): -11.3%

CS(C)(=O)=Nc1ccc(-c2ccc(-c3nc4cc(O[C@@H]5CO[C@H]6[C@@H]5OC[C@H]6O)[nH]c4cc3F)cc2)cc1
inhibition (PKN2 (Homo sapiens, UniProt Q16513); enzyme activity, inhibitor; 10 µM): 15%

CC(C)[C@H]1NC(=O)C[C@H]2/C=C/CCSSC[C@@H](NC1=O)C(=O)N[C@H](Cc1cccc3ccccc13)C(=O)NCC(=O)O2
inhibition (PAK2 (Homo sapiens, UniProt Q13177); enzyme activity, inhibitor; 10 µM): -1.3%
